# Results from different studies.
# Each numbered part is a random draw from the data of one study; scales do not carry over between parts. Several values in a cell are separate wells, animals, samples, runs or records.
# UniProt Q14164, sequence (whole entry, looked up): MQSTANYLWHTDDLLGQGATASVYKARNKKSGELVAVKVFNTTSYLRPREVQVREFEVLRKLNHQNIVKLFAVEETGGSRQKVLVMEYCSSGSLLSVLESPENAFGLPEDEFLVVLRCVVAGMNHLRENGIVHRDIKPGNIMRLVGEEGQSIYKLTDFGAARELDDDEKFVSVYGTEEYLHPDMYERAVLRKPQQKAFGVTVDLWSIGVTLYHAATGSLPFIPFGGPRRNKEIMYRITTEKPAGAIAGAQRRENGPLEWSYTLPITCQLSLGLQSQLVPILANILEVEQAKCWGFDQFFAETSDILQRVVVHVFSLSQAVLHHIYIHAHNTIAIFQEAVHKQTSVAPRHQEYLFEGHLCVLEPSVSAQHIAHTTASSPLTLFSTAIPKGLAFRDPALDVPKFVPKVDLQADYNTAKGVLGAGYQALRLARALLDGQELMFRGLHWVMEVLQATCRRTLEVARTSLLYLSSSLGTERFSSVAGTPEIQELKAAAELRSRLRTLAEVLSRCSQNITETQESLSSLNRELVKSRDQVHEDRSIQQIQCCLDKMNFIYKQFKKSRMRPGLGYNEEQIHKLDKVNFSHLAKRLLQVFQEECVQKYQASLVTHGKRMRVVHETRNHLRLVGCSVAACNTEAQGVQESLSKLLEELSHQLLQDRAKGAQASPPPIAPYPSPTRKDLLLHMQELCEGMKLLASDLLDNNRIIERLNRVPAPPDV
# UniProt O94921, sequence (whole entry, looked up): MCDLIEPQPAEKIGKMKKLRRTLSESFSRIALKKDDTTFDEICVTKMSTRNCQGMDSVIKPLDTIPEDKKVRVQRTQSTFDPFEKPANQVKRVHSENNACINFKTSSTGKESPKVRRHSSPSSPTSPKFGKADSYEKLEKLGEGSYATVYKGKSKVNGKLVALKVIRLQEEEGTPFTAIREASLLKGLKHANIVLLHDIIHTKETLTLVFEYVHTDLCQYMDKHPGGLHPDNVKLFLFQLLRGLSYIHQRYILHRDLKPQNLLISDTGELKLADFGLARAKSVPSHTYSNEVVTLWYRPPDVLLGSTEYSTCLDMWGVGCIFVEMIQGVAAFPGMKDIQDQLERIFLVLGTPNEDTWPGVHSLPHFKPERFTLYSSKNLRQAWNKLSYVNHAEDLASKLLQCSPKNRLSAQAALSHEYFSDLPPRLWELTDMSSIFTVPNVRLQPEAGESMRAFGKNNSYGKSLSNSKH
# UniProt P57078, sequence (whole entry, looked up): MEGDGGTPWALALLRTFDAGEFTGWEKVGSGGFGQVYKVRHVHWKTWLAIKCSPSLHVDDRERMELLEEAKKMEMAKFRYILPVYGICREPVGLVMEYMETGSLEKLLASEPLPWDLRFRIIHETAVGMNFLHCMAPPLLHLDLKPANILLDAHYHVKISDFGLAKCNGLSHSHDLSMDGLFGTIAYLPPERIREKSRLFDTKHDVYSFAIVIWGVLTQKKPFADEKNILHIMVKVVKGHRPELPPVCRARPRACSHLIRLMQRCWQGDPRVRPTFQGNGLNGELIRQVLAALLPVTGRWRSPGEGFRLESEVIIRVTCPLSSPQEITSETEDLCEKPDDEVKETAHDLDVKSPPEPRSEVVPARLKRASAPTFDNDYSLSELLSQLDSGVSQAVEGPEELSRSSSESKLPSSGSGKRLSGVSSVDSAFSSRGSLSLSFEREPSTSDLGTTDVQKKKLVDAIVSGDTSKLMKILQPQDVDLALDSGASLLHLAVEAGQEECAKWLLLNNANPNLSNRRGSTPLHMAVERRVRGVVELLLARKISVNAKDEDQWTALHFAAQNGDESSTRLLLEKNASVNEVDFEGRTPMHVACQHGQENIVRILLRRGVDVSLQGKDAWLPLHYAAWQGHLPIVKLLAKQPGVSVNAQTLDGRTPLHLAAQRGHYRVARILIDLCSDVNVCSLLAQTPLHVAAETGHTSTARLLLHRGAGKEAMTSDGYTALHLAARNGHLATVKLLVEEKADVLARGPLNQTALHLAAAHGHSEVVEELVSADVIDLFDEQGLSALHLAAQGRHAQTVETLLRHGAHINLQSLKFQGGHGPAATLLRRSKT
# UniProt P21709, sequence (whole entry, looked up): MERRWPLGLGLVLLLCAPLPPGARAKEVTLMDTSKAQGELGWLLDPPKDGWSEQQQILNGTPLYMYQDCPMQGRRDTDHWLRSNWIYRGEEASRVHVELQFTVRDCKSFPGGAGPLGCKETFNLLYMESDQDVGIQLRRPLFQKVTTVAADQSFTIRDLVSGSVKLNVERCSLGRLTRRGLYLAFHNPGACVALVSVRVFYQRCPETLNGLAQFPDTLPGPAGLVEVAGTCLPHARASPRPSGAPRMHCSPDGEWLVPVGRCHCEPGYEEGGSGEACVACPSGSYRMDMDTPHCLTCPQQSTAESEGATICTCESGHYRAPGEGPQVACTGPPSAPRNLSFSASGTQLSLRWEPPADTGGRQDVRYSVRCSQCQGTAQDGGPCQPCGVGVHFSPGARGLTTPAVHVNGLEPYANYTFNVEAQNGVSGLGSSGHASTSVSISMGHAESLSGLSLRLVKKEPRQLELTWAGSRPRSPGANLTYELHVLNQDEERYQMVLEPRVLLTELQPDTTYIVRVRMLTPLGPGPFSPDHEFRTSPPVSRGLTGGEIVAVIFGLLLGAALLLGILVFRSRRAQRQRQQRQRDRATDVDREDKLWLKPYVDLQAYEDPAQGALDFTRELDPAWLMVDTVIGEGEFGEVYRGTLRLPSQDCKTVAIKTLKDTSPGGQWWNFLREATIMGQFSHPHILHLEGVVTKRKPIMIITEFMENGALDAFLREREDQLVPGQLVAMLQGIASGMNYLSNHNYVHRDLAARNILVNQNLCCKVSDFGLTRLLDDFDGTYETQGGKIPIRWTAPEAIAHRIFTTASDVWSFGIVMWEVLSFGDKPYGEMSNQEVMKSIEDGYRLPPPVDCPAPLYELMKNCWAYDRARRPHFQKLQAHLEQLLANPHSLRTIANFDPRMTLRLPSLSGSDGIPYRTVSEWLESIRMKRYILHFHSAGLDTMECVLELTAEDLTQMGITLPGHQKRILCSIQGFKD
# UniProt P07333, sequence (whole entry, looked up): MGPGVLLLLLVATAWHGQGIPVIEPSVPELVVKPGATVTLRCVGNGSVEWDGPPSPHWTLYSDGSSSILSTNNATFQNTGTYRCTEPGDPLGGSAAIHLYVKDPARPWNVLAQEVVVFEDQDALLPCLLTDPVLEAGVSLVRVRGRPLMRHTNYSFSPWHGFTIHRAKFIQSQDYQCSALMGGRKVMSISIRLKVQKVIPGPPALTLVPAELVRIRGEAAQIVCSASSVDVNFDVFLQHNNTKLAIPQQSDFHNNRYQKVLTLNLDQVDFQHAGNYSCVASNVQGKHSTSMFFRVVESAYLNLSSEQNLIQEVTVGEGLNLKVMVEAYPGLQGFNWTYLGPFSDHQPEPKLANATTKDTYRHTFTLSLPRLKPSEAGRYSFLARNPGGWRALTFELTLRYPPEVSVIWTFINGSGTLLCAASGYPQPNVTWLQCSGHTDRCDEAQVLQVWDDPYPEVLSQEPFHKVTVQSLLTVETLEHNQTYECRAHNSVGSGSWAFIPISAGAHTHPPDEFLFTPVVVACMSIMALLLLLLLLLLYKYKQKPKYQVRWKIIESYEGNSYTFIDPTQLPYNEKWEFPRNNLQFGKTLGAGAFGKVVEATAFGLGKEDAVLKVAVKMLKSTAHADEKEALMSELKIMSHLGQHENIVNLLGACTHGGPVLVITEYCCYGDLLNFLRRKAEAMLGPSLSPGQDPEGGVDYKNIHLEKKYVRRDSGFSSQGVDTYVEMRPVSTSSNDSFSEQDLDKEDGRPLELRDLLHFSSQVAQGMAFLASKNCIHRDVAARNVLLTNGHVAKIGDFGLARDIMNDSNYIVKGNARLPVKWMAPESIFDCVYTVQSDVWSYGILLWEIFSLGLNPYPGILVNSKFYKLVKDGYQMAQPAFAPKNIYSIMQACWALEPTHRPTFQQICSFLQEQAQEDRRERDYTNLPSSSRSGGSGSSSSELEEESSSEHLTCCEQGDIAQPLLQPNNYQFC
# UniProt O95747, sequence (whole entry, looked up): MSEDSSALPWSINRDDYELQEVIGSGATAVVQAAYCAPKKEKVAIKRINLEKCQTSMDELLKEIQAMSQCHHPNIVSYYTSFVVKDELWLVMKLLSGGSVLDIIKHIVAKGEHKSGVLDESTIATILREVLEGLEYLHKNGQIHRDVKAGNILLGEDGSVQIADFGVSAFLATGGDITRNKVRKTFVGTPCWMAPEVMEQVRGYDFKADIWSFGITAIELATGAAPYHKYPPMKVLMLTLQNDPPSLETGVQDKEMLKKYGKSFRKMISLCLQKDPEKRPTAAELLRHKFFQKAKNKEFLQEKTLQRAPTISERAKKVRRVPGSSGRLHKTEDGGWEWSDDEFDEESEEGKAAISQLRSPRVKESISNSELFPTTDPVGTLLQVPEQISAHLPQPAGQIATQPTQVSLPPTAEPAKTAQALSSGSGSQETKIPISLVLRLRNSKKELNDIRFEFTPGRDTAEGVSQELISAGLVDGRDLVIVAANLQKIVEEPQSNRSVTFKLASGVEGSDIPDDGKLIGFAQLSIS
# UniProt Q9UIK4, sequence (whole entry, looked up): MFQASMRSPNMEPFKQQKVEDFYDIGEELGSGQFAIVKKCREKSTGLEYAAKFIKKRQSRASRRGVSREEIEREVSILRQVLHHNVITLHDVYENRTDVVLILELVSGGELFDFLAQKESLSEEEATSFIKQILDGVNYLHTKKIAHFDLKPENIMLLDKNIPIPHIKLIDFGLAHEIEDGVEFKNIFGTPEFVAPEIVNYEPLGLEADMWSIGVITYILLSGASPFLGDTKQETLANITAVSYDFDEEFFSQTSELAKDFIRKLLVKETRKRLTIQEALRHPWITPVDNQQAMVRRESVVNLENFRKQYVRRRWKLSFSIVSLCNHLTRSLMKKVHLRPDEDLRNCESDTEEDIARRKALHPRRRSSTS

# Study 1 — cell line: mouse MPNST tumor cells; technique: high-content nuclear imaging; measured: cell number; concentration: 10 µM; time: 12 h; setting: mean of 2 replicates; baseline: plate mean; reading: higher = more cells
Compound,nuclei count
NS(=O)(=O)c1cc2c(cc1C(F)(F)F)NCNS2(=O)=O,-0.839 z-score
CCC[C@@H]1C[C@@H](C(=O)N[C@@H]([C@H]2O[C@H](SC)[C@H](O)[C@@H](O)[C@H]2O)[C@H](C)Cl)N(C)C1,1.42 z-score
Cc1ccc(C)c(OCCCC(C)(C)C(=O)O)c1,-0.216 z-score
COc1cc(COc2cc(N)c(Cl)cc2C(=O)CCC2CCN(CCNS(C)(=O)=O)CC2)cc(OC)c1,-6.35 z-score
CC(=O)Oc1ccccc1C(=O)O,1.38 z-score and 0.665 z-score
Nc1nc2c(ncn2COC(CO)CO)c(=O)[nH]1,-0.0275 z-score and 0.709 z-score
C[C@H](N)[C@H](O)c1cccc(O)c1,3.4 z-score
CCOC(=O)c1cc2ccc(O)cc2oc1=O,1.97 z-score
Cc1cccc(-c2[nH]c(C(C)(C)C)nc2-c2ccc3nccnc3c2)n1,-2.92 z-score
CNC(=O)c1c(F)cccc1Nc1nc(Nc2cc3c(cc2OC)CCN3C(=O)CN(C)C)nc2[nH]ccc12,-0.45 z-score
OC1C(CCl)OC(n2cnc3c(NC4CC5CCC4C5)ncnc32)C1O (centres unmarked),1.53 z-score
CN1CCCC(CC2c3ccccc3Sc3ccccc32)C1 (centres unmarked),-5.08 z-score
COCCN(C(=O)c1cc(OC)c(OC)c(OC)c1)c1nc(-c2ccccc2)cs1,1.22 z-score

# Study 2 — cell line: HaCaT; concentration: 100 µM; time: 36 h
Compound,viability [%]
O=C(/C=C/c1cccc(S(=O)(=O)Nc2ccccc2)c1)NO,6.99
CCN(CC)CCc1nc(-c2ccccc2)no1,89.9
Cc1coc2c1C(=O)C(=O)c1c-2ccc2c(C)cccc12,7.89
N#CC1(c2ccc(NC(=O)c3cccnc3NCc3ccncc3)cc2)CCCC1,25.3
C/C=C(/C(=C/C)c1ccc(O)cc1)c1ccc(O)cc1,4.91
CCC(Cc1c(I)cc(I)c(N)c1I)C(=O)O (centres unmarked),59.6
CSCC1CN(/N=C/c2ccc([N+](=O)[O-])o2)C(=O)O1 (centres unmarked),9.48
CC(=O)Nc1ncc([N+](=O)[O-])s1,112
CC(C)(C)NC[C@H](O)COc1nsnc1N1CCOCC1,85.4
NC(=O)NO,89.6
CC[C@H]1OC(=O)[C@H](C)[C@@H](O[C@H]2C[C@@](C)(OC)[C@@H](O)[C@H](C)O2)[C@H](C)[C@@H](O[C@@H]2O[C@H](C)C[C@H](N(C)C)[C@H]2O)[C@](C)(OC)C[C@@H](C)C(=O)[C@H](C)[C@@H](O)[C@]1(C)O,87
C/C=C1\NC(=O)[C@H]2CSSCC/C=C/[C@H](CC(=O)N[C@H](C(C)C)C(=O)N2)OC(=O)[C@H](C(C)C)NC1=O,7.93
Clc1ccc(C(Cn2ccnc2)OCc2ccc(Sc3ccccc3)cc2)c(Cl)c1 (centres unmarked),8.73
C[C@]12C=CC(=O)C=C1CC[C@@H]1[C@@H]2C(=O)C[C@@]2(C)[C@H]1CC[C@]2(O)C(=O)CO,112
CN1[C@@H]2CCC[C@H]1C[C@@H](NC(=O)c1nn(C)c3ccccc13)C2,83.2
Nc1ccc(S(=O)(=O)Nc2nccs2)cc1,61.7

# Study 3 — observed: enzyme activity; mode: inhibitor; concentration: 0.5 µM; baseline: control
# Structure (SMILES): Cc1nc(Nc2ncc(C(=O)Nc3c(C)cccc3Cl)s2)cc(N2CCN(CCO)CC2)n1
target,remaining activity [%]
"Mitogen-activated protein kinase 9 (MAPK9, Homo sapiens, UniProt P45984)",110
"Cyclin-dependent kinase 5, with p25 (CDK5, Homo sapiens, UniProt Q00535)",102
"Inhibitor of nuclear factor kappa-B kinase subunit epsilon (IKBKE, Homo sapiens, UniProt Q14164)",90
"Inhibitor of nuclear factor kappa-B kinase subunit beta (IKBKB, Homo sapiens, UniProt O14920)",94
"Serine/threonine-protein kinase Chk2 (CHEK2, Homo sapiens, UniProt O96017)",103
"Mitogen-activated protein kinase kinase kinase 3 (MAP3K3, Homo sapiens, UniProt Q99759)",87.8
"cGMP-dependent protein kinase 1, isoform beta (PRKG1, Homo sapiens, UniProt Q13976)",94.4
"Protein kinase C alpha type (PRKCA, Homo sapiens, UniProt P17252)",103
"TGF-beta receptor type-2 (TGFBR2, Homo sapiens, UniProt P37173)",98.3
"Serine/threonine-protein kinase OSR1 (OXSR1, Homo sapiens, UniProt O95747)",99.9
"Tyrosine-protein kinase Lyn, isoform B (LYN, Homo sapiens, UniProt P07948)",1.6
"Calcium/calmodulin-dependent protein kinase kinase 2 (CAMKK2, Homo sapiens, UniProt Q96RR4)",101
"Protein kinase C beta type, isoform beta-I (PRKCB, Homo sapiens, UniProt P05771)",98.8
"STE20/SPS1-related proline-alanine-rich protein kinase (STK39, Homo sapiens, UniProt Q9UEW8)",92.8
"cAMP-dependent protein kinase catalytic subunit alpha (PRKACA, Homo sapiens, UniProt P17612)",102
"Serine/threonine-protein kinase Nek2 (NEK2, Homo sapiens, UniProt P51955)",103
"Death-associated protein kinase 2 (DAPK2, Homo sapiens, UniProt Q9UIK4)",91.2
"G protein-coupled receptor kinase 3 (GRK3, Homo sapiens, UniProt P35626)",102
"Calcium/calmodulin-dependent protein kinase type II subunit delta (CAMK2D, Homo sapiens, UniProt Q13557)",109
"Death-associated protein kinase 1 (DAPK1, Homo sapiens, UniProt P53355)",122

# Study 4 — observed: cell-free assay; technique: competition with immobilised ligand; concentration: 1 µM
# Compound: CC(=O)Nc1c(C(C)=O)c(=O)n(C)c2nc(-c3ccc(Cl)cc3Cl)c(-c3ccc(Cl)cc3)cc12
target,remaining binding [%]
"Ephrin type-A receptor 1 (EPHA1, Homo sapiens, UniProt P21709)",100
"Serine/threonine-protein kinase ICK (CILK1, Homo sapiens, UniProt Q9UPZ9)",100
"Aurora kinase B (AURKB, Homo sapiens, UniProt Q96GD4)",92
"Discoidin domain-containing receptor 2 (DDR2, Homo sapiens, UniProt Q16832)",100
"STE20/SPS1-related proline-alanine-rich protein kinase (STK39, Homo sapiens, UniProt Q9UEW8)",100
"Epidermal growth factor receptor (EGFR, Homo sapiens, UniProt P00533, A750P/del747-749)",100
"MAP kinase-interacting serine/threonine-protein kinase 1 (MKNK1, Homo sapiens, UniProt Q9BUB5)",100
"Serine/threonine-protein kinase Nek4 (NEK4, Homo sapiens, UniProt P51957)",100
"Receptor-interacting serine/threonine-protein kinase 4 (RIPK4, Homo sapiens, UniProt P57078)",93
"Rho-associated protein kinase 2 (ROCK2, Homo sapiens, UniProt O75116)",100
"Cyclin-dependent kinase 14 (CDK14, Homo sapiens, UniProt O94921)",100
"Tyrosine-protein kinase Blk (BLK, Homo sapiens, UniProt P51451)",100
"Receptor-type tyrosine-protein kinase FLT3 (FLT3, Homo sapiens, UniProt P36888, K663Q)",100
"Receptor-type tyrosine-protein kinase FLT3 (FLT3, Homo sapiens, UniProt P36888, ITD)",100
"Epidermal growth factor receptor (EGFR, Homo sapiens, UniProt P00533, del747-752/P753S)",86
"Macrophage colony-stimulating factor 1 receptor, autoinhibited (CSF1R, Homo sapiens, UniProt P07333)",100
"Phosphatidylinositol 5-phosphate 4-kinase type-2 beta (PIP4K2B, Homo sapiens, UniProt P78356)",91
"Cyclin-G-associated kinase (GAK, Homo sapiens, UniProt O14976)",100
"Dual serine/threonine and tyrosine protein kinase (DSTYK, Homo sapiens, UniProt Q6XUX3)",100
"Inhibitor of nuclear factor kappa-B kinase subunit epsilon (IKBKE, Homo sapiens, UniProt Q14164)",80
"Tyrosine-protein kinase ABL2 (ABL2, Homo sapiens, UniProt P42684)",100
"Ephrin type-B receptor 2 (EPHB2, Homo sapiens, UniProt P29323)",100
"Cyclin-dependent kinase 15 (CDK15, Homo sapiens, UniProt Q96Q40)",100
"cAMP-dependent protein kinase catalytic subunit PRKX (PRKX, Homo sapiens, UniProt P51817)",100
"Serine/threonine-protein kinase RIO3 (RIOK3, Homo sapiens, UniProt O14730)",100

# Excerpt of the above (study 4):
target,remaining binding [%]
"Receptor-interacting serine/threonine-protein kinase 4 (RIPK4, Homo sapiens, UniProt P57078)",93
"Epidermal growth factor receptor (EGFR, Homo sapiens, UniProt P00533, del747-752/P753S)",86
"cAMP-dependent protein kinase catalytic subunit PRKX (PRKX, Homo sapiens, UniProt P51817)",100
"Ephrin type-A receptor 1 (EPHA1, Homo sapiens, UniProt P21709)",100
"Epidermal growth factor receptor (EGFR, Homo sapiens, UniProt P00533, A750P/del747-749)",100
"Inhibitor of nuclear factor kappa-B kinase subunit epsilon (IKBKE, Homo sapiens, UniProt Q14164)",80
"Cyclin-dependent kinase 14 (CDK14, Homo sapiens, UniProt O94921)",100
"Tyrosine-protein kinase ABL2 (ABL2, Homo sapiens, UniProt P42684)",100
"Tyrosine-protein kinase Blk (BLK, Homo sapiens, UniProt P51451)",100
"Macrophage colony-stimulating factor 1 receptor, autoinhibited (CSF1R, Homo sapiens, UniProt P07333)",100
